Experimental data of several laboratories.
Parts stem from different laboratories: compare values within a part only.
Chain of UniProt Q84WU6 (whole entry, looked up): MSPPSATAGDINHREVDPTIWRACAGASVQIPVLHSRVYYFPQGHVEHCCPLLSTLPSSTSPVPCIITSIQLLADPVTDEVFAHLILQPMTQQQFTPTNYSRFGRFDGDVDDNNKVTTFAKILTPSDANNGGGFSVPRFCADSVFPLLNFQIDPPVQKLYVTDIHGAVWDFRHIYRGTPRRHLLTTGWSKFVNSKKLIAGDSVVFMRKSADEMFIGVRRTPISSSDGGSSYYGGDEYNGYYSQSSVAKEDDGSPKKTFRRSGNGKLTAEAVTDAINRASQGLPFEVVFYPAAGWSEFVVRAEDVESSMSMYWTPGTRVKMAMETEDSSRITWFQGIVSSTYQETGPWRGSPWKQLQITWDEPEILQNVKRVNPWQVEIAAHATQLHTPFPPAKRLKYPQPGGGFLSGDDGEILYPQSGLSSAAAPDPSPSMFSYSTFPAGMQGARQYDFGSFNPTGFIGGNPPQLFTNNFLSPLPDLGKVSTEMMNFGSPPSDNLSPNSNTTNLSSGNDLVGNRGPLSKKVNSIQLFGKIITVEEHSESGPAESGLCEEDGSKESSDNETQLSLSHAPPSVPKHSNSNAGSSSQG
Chain of UniProt Q8LAL2 (whole entry, looked up): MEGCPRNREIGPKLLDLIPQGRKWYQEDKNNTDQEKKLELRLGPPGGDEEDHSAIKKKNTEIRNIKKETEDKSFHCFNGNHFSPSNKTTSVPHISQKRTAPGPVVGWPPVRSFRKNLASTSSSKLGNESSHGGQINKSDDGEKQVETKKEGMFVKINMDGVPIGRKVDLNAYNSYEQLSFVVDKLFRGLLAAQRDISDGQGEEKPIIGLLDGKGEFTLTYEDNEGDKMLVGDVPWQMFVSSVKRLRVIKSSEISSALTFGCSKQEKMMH
Chain of UniProt P93022 (whole entry, looked up): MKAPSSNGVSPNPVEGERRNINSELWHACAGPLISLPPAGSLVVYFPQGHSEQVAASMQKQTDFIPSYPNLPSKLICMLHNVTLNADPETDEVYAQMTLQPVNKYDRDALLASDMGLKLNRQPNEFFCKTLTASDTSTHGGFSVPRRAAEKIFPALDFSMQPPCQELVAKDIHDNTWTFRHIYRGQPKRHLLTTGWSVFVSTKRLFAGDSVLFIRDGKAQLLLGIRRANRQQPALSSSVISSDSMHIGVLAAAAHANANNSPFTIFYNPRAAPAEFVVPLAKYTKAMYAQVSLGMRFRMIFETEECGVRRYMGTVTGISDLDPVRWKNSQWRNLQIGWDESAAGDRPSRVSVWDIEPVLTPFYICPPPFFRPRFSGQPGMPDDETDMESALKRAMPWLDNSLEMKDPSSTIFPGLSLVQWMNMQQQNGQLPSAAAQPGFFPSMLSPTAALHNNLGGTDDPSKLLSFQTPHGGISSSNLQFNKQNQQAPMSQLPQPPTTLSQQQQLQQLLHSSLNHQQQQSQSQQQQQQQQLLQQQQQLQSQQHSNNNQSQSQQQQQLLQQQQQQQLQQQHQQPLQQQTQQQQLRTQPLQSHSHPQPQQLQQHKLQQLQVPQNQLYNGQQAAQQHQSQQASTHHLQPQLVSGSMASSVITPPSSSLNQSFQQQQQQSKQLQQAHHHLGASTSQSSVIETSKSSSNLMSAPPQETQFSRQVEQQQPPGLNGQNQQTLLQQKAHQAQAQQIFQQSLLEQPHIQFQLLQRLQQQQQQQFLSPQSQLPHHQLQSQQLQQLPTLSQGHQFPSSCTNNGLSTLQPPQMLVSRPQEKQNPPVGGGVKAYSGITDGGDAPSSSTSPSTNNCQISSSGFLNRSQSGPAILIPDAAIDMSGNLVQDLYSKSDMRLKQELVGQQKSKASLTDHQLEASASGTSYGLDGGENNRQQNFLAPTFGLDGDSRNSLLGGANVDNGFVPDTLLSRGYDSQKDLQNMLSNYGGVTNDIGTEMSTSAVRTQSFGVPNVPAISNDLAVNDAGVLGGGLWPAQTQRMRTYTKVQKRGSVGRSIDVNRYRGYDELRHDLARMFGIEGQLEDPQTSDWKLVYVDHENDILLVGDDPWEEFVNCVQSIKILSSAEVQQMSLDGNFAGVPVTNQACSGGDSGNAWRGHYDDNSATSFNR
Chain of UniProt Q38827 (whole entry, looked up): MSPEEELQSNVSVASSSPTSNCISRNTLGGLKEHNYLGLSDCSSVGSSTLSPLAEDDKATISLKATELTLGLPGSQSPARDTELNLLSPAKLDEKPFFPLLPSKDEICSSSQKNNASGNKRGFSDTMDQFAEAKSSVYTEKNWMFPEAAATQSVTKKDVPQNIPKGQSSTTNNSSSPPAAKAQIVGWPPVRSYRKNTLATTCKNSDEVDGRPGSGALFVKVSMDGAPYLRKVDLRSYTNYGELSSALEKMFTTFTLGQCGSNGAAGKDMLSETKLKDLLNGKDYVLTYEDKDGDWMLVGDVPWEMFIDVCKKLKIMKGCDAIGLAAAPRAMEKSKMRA

Series 1 — method: two-hybrid; direction: higher = firmer interaction
Substance: IAA8 (Arabidopsis thaliana, UniProt Q38826)
Chain of UniProt Q38826 (whole entry, looked up): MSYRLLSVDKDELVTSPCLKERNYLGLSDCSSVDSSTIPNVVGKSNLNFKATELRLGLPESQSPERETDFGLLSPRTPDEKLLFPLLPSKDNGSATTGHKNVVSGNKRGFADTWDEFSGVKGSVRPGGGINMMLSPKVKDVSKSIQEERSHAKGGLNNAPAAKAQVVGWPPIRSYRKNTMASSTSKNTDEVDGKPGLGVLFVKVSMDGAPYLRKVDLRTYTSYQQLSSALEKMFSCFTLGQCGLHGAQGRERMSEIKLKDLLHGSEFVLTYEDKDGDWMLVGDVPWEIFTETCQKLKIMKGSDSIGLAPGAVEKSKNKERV
IAA9 (Arabidopsis thaliana, UniProt Q38827); reference: out of 2 tests — positive tests: 2.
The positive tests was 0 (ARF17 (Arabidopsis thaliana, UniProt Q84WU6); weak activation fusion; reference: out of 4 tests).
It gave 0 for positive tests (IAA26 (Arabidopsis thaliana, UniProt Q8LAL2); reference: out of 2 tests).
ARF7 1030-1164 (Arabidopsis thaliana, UniProt P93022); reference: out of 2 tests — positive tests: 2.

Series 2 — method: protein binding microarray; molecule type: double-stranded DNA, one strand shown; sample: in vitro; tested at: not given; reference: not given; direction: higher = stronger binding
Target: Histone acetyltransferase KAT6A, winged helix 1, GST fusion (KAT6A, Homo sapiens, UniProt Q92794, residues 1-85)
Setting: 8-mer, flanks averaged, mean of 2 arrays, mostly near background
Residues (chain): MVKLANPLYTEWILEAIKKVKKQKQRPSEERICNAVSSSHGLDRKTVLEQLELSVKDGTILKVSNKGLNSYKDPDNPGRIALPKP
`GAATGGTC` gave an E-score of 0.0592.
`GCAGTCGC` has an E-score of 0.226.
For `CCGTCTCG`, the E-score was 0.276.
`ACCTAGAT` has an E-score of -0.148.
The E-score of `AACCCACT` is reported as 0.00577.
With `ATAAGCGA` the E-score was 0.13.
For `ACTGATGA`, the E-score was -0.206.
The E-score of `TAGGATCA` is reported as -0.219.
`CGCGTCAA` has an E-score of 0.289.
`AAATTGTT` gave an E-score of -0.202.
With `GAGAAGGA` the E-score was -0.139.
The E-score of `CGCTGGAG` is reported as 0.11.
The E-score of `GTGTACTA` is reported as -0.0258.
For `GCGTGTTA`, the E-score was 0.126.
The E-score of `CACGCCGC` is reported as 0.372.
With `ATCATTGA` the E-score was -0.00583.
`TCGTAACA` has an E-score of 0.0481.

Series 3 — method: protein-binding microarray; molecule type: double-stranded DNA, one strand shown; sample: in vitro; tested at: 2540 nM top; setting: 60-bp whole probe; with: salmon DNA 0.4 mg/ml; reference: random background probes; direction: higher = stronger binding; shared flanks, not repeated: GCCTAGCAC … GTCTTGATTCGCTTGACGCTGCTG
Target: Interferon regulatory factor 3, full length, phosphomimetic (IRF3, Homo sapiens, UniProt Q14653, residues 1-427, S386D/S396D/S398D/S402D/T404D/S405D)
Target sequence (chain): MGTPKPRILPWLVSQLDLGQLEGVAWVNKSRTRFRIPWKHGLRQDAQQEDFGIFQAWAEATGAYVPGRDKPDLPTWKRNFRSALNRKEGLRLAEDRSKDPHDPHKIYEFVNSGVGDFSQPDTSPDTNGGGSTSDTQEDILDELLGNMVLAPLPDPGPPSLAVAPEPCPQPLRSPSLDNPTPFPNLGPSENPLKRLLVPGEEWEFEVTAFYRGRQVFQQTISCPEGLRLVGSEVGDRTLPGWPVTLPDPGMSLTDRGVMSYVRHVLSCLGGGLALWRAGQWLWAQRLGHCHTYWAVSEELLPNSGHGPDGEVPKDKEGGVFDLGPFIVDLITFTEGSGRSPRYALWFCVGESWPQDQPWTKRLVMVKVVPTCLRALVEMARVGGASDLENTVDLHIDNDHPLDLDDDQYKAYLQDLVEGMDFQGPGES
`TCCTGTGTCTTAAATAGGGCAGTGCTA` — result for “fitted relative affinity”: 0.139 z-score.
For `GAGGAACTGAGTCTCGAGACGTGCTAG`, “fitted relative affinity” read -0.733 z-score.
`GAAGATTTCAGTATCGAGACGTGCTAG`: “fitted relative affinity” 1.97 z-score.
`CATTTTCTGAATGTCCTCCTGTGCTAG`: “fitted relative affinity” 3.81 z-score.
`GGTACTCACCTCCAGGCTGAGTGCTAG`: “fitted relative affinity” -0.0362 z-score.
`TGTTATTAAATTTTCACGGTGTGCTAG`: “fitted relative affinity” 0.213 z-score.
Under “fitted relative affinity”, `GACGGTTTCGGTATCAGGACGTGCTAG` is recorded as 8.25 z-score.
`TTAGGTATCCTACTGCGTTAGTGCTAG`: “fitted relative affinity” 2.41 z-score.
`TTCGATATCAGTCTCGATTAGTGCTAG` — result for “fitted relative affinity”: 1.65 z-score.
For `TCATGTCTGGGATGTAATACTGTGCTA`, “fitted relative affinity” read -0.32 z-score.
For `GACGGACTGCTTTTCCCGACGTGCTAG`, “fitted relative affinity” read -0.0159 z-score.
`GACGGTTTCCTGTCCCTGACGTGCTAG`: “fitted relative affinity” 3.76 z-score.
Under “fitted relative affinity”, `GACGGTATCCTTTTCCTGACGTGCTAG` is recorded as 7.39 z-score.
`TCATGTTTGATCTTGATACTGTGCTAG`: “fitted relative affinity” 0.331 z-score.
`GCCGGTTTCGACTTTCGGGACGTGCTA`: “fitted relative affinity” 4.34 z-score.
`GAAGATTTCAGTTTCGAGACGTGCTAG` — result for “fitted relative affinity”: 5.02 z-score.
`GGGATGGTGGGGCTCCTCCTGTGCTAG`: “fitted relative affinity” -1.26 z-score.
`TTAGGTATCTACACTGGGTTAGTGCTA`: “fitted relative affinity” -0.144 z-score.
`TTAGGCTTCGGTCTCGGTTAGTGCTAG` — result for “fitted relative affinity”: 0.514 z-score.
`TTAGATTCCGGGACTGGATTAGTGCTA` — result for “fitted relative affinity”: 0.361 z-score.
`GACGGTCTCCTTCTCCTAACGTGCTAG` — result for “fitted relative affinity”: 4.24 z-score.
For `TCATCTCTGAAGACTCTCACTGTGCTA`, “fitted relative affinity” read 0.682 z-score.
`GTCGGTATCGGTCTCGGGACGTGCTAG` — result for “fitted relative affinity”: 5.88 z-score.
For `GTATTTTTCTAAACCATTTTGTGCTAG`, “fitted relative affinity” read 1.65 z-score.
For `TTAGGTTTCCCACTGCTTTAGTGCTAG`, “fitted relative affinity” read 4.57 z-score.

Series 4 — method: RNA Bind-n-Seq; molecule type: RNA; sample: in vitro; tested at: 100 nM; reference: input RNA pool; direction: higher = stronger binding
Target: RING finger protein unkempt homolog, zinc fingers 1-6, SBP tag (UNK, Homo sapiens, UniProt Q9C0B0, residues 30-357)
Chain of UniProt Q9C0B0 (30-357, looked up): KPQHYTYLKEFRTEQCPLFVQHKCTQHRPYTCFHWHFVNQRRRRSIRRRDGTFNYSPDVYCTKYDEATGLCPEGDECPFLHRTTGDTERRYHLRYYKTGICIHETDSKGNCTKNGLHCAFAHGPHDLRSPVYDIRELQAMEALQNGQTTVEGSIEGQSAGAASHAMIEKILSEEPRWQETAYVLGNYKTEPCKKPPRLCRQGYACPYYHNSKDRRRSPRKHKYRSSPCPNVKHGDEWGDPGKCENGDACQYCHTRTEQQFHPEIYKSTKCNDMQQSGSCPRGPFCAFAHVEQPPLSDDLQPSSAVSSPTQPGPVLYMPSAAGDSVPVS
Setting: RNA with constant flanks, vertebrate orthologous sites, ends assumed
Shared flanks, not repeated: GGGAGUUCUACAGUCCGACGAUC … CAACAGAGGAUUGAGCAUCA
`CUGUUGUUAAGCACUGUGCUGCAGCCCGUGUCUGACUUUAGUGUAACCUAGGAGAUUUUCUAGUUUUAUUUUAAUGACACUCUGAUUGGCGCCGAGCAGUGGGACAAGCUGUCUCUCCCA` gave a bound/input enrichment of 0.558 ratio.
`CUCUUUUUACCUUUUUACUGCCUCAGUGAGGUAAAGAUUCCUCUUGGACAUUUUUUCCAGUAUUGCAUCCUAUGGUCCUAAUAGCUUUUUUUAAAAUUUCAGAUAUUAUCAUUUUACUAG` gave a bound/input enrichment of 1.74 ratio.
`AGAGCUCACAAACUGAAAGGAAAACUAUUAAAGAGUUUCUAAUAUUAACUAUUAAAAAGCUAGGAAAGAUUAGGACAAUUUUACAAAUGAGCAAUUAAAAAGAAAAGGAUCUGGGAACUA` gave a bound/input enrichment of 0.419 ratio.
With `AAAUGAAAAUGGCUUCUGCUCCAUUAAAAAAUAAAAAUUGUCCCCUAUAAAACUCCUUAAUAGAUAUUUUUGGAAUUAAAAUCUUUAAAUUUUAUAAAUCAGCUCUUGCCACUUCAAAAC` the bound/input enrichment was 1.19 ratio.
For `GGAGCUUGUGUUUGGCUGCACCUGCAUCCUAAGCUGCUACAACCAGAAUAAAGAGUUUCCGAGCCUGCGUCUCGCUUAGGUGCAUGGGCGUGGGCUUGGCACACAGAGGGCGUGGAGCUG`, the bound/input enrichment was 0.196 ratio.
`UGAGUGUUGGAAGAAUAGCAUAUGAGGUUGUGGUCAAAAAGUAGGAGCAGUUGGGGAGAGAAGAUACACGUAUCAACAGCCAGGUGGUAAAAGGUGCAGAUGAAGGUCAUUGAAACUCAA` gave a bound/input enrichment of 0.495 ratio.
`UUUCGGUUUUGCACAUGACAGUGUUUGUUUUGAGGAUCUUCUGAGGAAGAAGGGGUGCUAUGGUGGUGGUGCCUGGGUUCCUGGCCUCCAGUGCCCCACCCCCUCACCACCACACCUGGC` gave a bound/input enrichment of 0.332 ratio.
With `CUGUCUUCCAGGUUGGAGCUAGCGGAAAAGUCAUAGGAAUUGAUCACAUUAAAGAGCUAGUAGAUGACUCAAUAAAUAAUGUCAGAAAGGAUGAUCCAAUGCUCUUGUCUUCAGGGAGAG` the bound/input enrichment was 0.536 ratio.
The bound/input enrichment of `AUAAUCACUCUAAUUGUAUUCUGAAUAAAGUGUAACAUUGUGUAGCCUUUUUGUAUAAAAUAGACAAAUAGAAAUGGUCCAAUUAGUUUCCUUUUUAAUAUGCUUAAAAUAAGCAGGUGG` is reported as 2.15 ratio.
`UUCAGGUACAACGGACUGGUUCACAGCAUUCCUUACACAGUUAUUUAUCAAGUACAAGUGUAGUUAAUUUUCAGGAUACAUCCAGGCAGUCAGCAUUAUCUUGCAGUCCAGUUGGAGAUG` has a bound/input enrichment of 0.978 ratio.
The bound/input enrichment of `CUACAAUAAUGAAAAACCUACCAGGAAUUUUUUUAUUUUUCAUUUCCCCUUAGGCAUACCUAGUCUUUUUCCCCCGAGGCAGAUCAUUCUGAGUGUGCGAGUGUGUGUGCACAUGUUACA` is reported as 0.926 ratio.

Series 5 — method: RNA Bind-n-Seq; molecule type: RNA; sample: in vitro; tested at: 200 nM; setting: whole 134-nt RNA, ends assumed; with: 150 mM LiCl; reference: input library; direction: higher = stronger binding; library: 7-deaza-guanosine replaces G
Target: Ras GTPase-activating protein-binding protein 1, full length (G3BP1, Homo sapiens, UniProt Q13283)
Chain of UniProt Q13283 (whole entry, looked up): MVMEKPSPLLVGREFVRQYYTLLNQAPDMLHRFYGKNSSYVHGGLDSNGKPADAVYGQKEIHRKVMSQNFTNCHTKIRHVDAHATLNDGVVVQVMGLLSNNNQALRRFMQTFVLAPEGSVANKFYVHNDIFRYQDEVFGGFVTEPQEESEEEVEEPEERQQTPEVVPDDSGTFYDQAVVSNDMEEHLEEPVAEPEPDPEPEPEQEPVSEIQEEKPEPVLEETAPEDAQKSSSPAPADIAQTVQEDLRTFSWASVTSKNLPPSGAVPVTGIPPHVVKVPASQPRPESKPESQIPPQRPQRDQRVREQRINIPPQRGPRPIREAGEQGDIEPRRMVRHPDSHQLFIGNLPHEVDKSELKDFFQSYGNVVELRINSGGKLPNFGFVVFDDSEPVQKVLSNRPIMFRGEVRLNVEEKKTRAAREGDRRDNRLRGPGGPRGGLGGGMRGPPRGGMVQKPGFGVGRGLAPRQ
Shared flanks, not repeated: GGGAGUUCUACAGUCCGACGAUC … UGGAAUUCUCGGGUGUCAAGG
`CACAGACAACACGCACCCACACAGACACAGAGGGAAGGGGUUGGGAUGGGGACAUGGUGCACAGCAGGGCGGGGUAGGACCCCAGCCCCU` gave a log2 enrichment of -0.813.
`AAGUCCUGUGCUACACAUCGUAUGUACCGAAUCGGGGAAAGGAAAGGGGAAAGGGGAAAGUAUUAUGUUACGCCGUUCGGAUCUGCACUU` has a log2 enrichment of 0.417.
`ACCAUGCAGGUAAACAUCUUUGGGAAGUGGGGCAAGGGGGGGAUAGGGAGGGGGGUAACACUUUGGGAACAGGUGGUCCCAGGUCGUUUC` has a log2 enrichment of 0.00372.
For `CUCAAGUCCUGUGCUACACAUCGUAUGUACCGAAUCGGUUUGGGUUUGGUUUGGAAAGUAUUAUGUUACGCCGUUCGGAUCUGCACUUCC`, the log2 enrichment was 0.206.
`UGCAGCUGCUGGCCGCCUCCUAUGACCUGCACCGCUACUUCUACACGGGUGCCGAGAUCCUGGGCCUCAUCGACGAGAAGCACCGCGAGC` gave a log2 enrichment of -0.0641.
`UGGCCCUGGUAGCAUGCGGGGAGGAAGAGGUGGCCUCAUGGAUCGUGGUGGUCCCGGUGGAAUGUUCAGAGGUGGCCGUGGUGGAGACAG` gave a log2 enrichment of 0.0695.
The log2 enrichment of `UGGCCCUGGUGGCAUGCGGGGAGGAAGAGGUGGACUCAUGGAUCGUGGUGGUCCCGGUGGAAUGUUCAGAGGUGGCCGUGGUGGAGACAG` is reported as 0.53.
`CUCAAGUCCUGUGCUACACAUCGUAUGUACCGAAUCGGGGUUGGGUUGGUUGGAAAGUAUUAUGUUACGCCGUUCGGAUCUGCACUUCCA` has a log2 enrichment of 0.352.
With `AGUCCUGUGCUACACAUCGUAUGUACCGAAUCGGGAAAAAGGGAAAGGGUUUUUGGGAAAGUAUUAUGUUACGCCGUUCGGAUCUGCACU` the log2 enrichment was -1.82.
`GAAAUACCAUCGGAAGACGAUGGGACGGUGCUGCUCUCCACGGUUACAGCCCAGUUUCCAGGGGCGUGUGGGCUUCGCUACAGGAAUCCA` gave a log2 enrichment of 0.184.
`UCCUCAAGUCCUGUGCUACACAUCGUAUGUACCGAAUCGGCGGCGGCGGGGAAAGUAUUAUGUUACGCCGUUCGGAUCUGCACUUCCAGC` has a log2 enrichment of 1.1.

Excerpt of the above (series 1):
ARF7 1030-1164 (Arabidopsis thaliana, UniProt P93022); reference: out of 2 tests — positive tests: 2.
IAA9 (Arabidopsis thaliana, UniProt Q38827); reference: out of 2 tests — positive tests: 2.
The positive tests was 0 (ARF17 (Arabidopsis thaliana, UniProt Q84WU6); weak activation fusion; reference: out of 4 tests).
It gave 0 for positive tests (IAA26 (Arabidopsis thaliana, UniProt Q8LAL2); reference: out of 2 tests).
